Measured values pooled from the literature.
Compare with care: the assays were run in different laboratories.
Target: Serine/threonine-protein kinase DCLK2 (DCLK2, Homo sapiens, UniProt Q8N568)

Structure (SMILES) | test | setting | scale | quantity | value
COc1c(OCCCN2CCOCC2)ccc2c1N=C(NC(=O)c1cnc(N)nc1)N1CCN=C21 | kinase activity, inhibitor | 1 µM | baseline: untreated control | remaining activity | 53%
COc1cc(Nc2nccc(-c3cnn4nc(OC)ccc34)n2)cc(C(F)(F)F)c1 | binding, competition with immobilised ligand | 1 µM |  | remaining binding | 90%
Nc1ncc(-c2cc(-c3cnn(CC(F)(F)F)c3)ncc2F)nc1C(=O)NC1CNCC(F)C1 (stereo not shown) | enzyme activity | 1 µM | baseline: DMSO control | remaining activity | 102%
CCN1CCN(Cc2ccc(C(=O)Nc3ccc(C)c(NCc4cnc5[nH]ccc5c4OC)c3)cc2C(F)(F)F)CC1 | binding, competition with immobilised ligand | 1 µM |  | remaining binding | 100%
CN1CC[C@@H](COc2cnc(C#N)cc2-c2ccn3nc(NC(=O)C4CC4)cc3c2)C1 | enzyme activity, inhibitor | 1 µM |  | inhibition | 6%
O=C=[N][Ru-4]123([n]4c5ccc(O)cc5c5c6c(c7cc(F)c[n+]1c7c54)C(=O)NC6=O)[S+]1CC[S+]2CC[S+]3CC1 (stereo not shown) | enzyme activity | 100 nM, human enzyme, with: 10 µM ATP | baseline: untreated | remaining activity | 97%
C=CC(=O)N1Cc2nc(-c3cc(-c4cc(Cl)cnc4Cl)c(F)cc3F)n(-c3ccncn3)c2C1 | cell-free assay, inhibitor | 1 µM |  | inhibition | 11.6%
C=CC(=O)N1CCc2ccc(-n3c(=O)ccc4cnc5ccc(-c6cnn(C)c6)cc5c43)cc21 | KINOMEscan | 1 µM | baseline: DMSO control | remaining binding | 94%
C=CC(=O)Nc1cccc(-c2cnc3[nH]cc(C(=O)NC(C)(C)C)c3n2)c1 | enzyme activity, inhibitor | 0.1 µM |  | inhibition | 1%
COc1ccc(O)cc1-c1c[nH]c2ncc(-c3cncc(C(=O)N(C)C)c3)cc12 | binding, competition with immobilised ligand | 0.2 µM |  | inhibition | 0.97%
CC(C)=CC1OC(C)(C)C2C=C3C(=O)C(Cl)=CC(O)C3C3C(O)C4OC4C(=O)C132 (stereo not shown) | cell-free assay, competition with immobilised ligand | 10 µM |  | remaining binding | 90%
CN1CCN(Cc2ccc(-c3ccc(CO[C@H]4CCC[C@@H]4NC(=O)c4cc(-c5cnn(C)c5)cnc4N)cc3)cc2)CC1 | enzyme activity, inhibitor | 0.1 µM |  | inhibition | 2%
Cc1nc2c(F)cc(-c3nc(Nc4ccc(CNC(=O)CCCCCCC(=O)NO)cc4)ncc3F)cc2n1C(C)C | enzyme activity, inhibitor | 1 µM |  | inhibition | 41%
NC(=O)[C@@H](O)C[C@H]1CCc2sc3ncnc(O[C@H]4CC[C@H](N5CCOCC5)CC4)c3c21 | enzyme activity, inhibitor | 10 µM |  | inhibition | 16%
COc1cc(-n2cc3cc(F)cc(C(N)=O)c3n2)cc(Cl)c1C1CC(O)(CCO)Cc2ccccc21 (stereo not shown) | enzyme activity, inhibitor | 10 µM |  | inhibition | 0.43%
Cc1cccc(O[C@H]2CCC[C@@H](C(C)CNCc3ccncc3)C2)c1 (relative stereo) | enzyme activity, inhibitor | 10 µM |  | inhibition | -3%

Some of these lines once more:
Structure (SMILES) | test | setting | scale | quantity | value
CN1CCN(Cc2ccc(-c3ccc(CO[C@H]4CCC[C@@H]4NC(=O)c4cc(-c5cnn(C)c5)cnc4N)cc3)cc2)CC1 | enzyme activity, inhibitor | 0.1 µM |  | inhibition | 2%
Cc1nc2c(F)cc(-c3nc(Nc4ccc(CNC(=O)CCCCCCC(=O)NO)cc4)ncc3F)cc2n1C(C)C | enzyme activity, inhibitor | 1 µM |  | inhibition | 41%
NC(=O)[C@@H](O)C[C@H]1CCc2sc3ncnc(O[C@H]4CC[C@H](N5CCOCC5)CC4)c3c21 | enzyme activity, inhibitor | 10 µM |  | inhibition | 16%
